Experimental data pooled from the literature.
± marks the error that the study gave.

Compound	assay	test system	setting	scale	measurement	value
CCCC[C@@H]1NC(=O)[C@@H](NC(=O)[C@H](CCC(=O)O)NC(=O)CNC(=O)CN2CCN(CC(=O)O)CCN(CC(=O)O)CCN(CC(=O)O)CC2)CCCCNC(=O)C[C@@H](C(N)=O)NC(=O)[C@H](C(C)C)NC(=O)[C@@H]2CCCN2C(=O)[C@H](CCCNC(=N)N)NC(=O)CNC(=O)[C@H](Cc2c[nH]c3ccccc23)NC(=O)[C@H](CCCNC(=N)N)NC(=O)[C@@H](Cc2ccccc2)NC(=O)[C@H](Cc2c[nH]cn2)NC(=O)[C@H](CCC(=O)O)NC1=O [gallium-67 labelled]	–	B16/F1 melanoma-bearing C57 mice	intravenous, 0.037 MBq, 24 h	–	tumour to muscle ratio	55.8
O=C([O][Ti+2][O]C(=O)c1ccc(P(c2ccccc2)c2ccccc2)cc1)c1ccc(P(c2ccccc2)c2ccccc2)cc1.[Cl][Au].[Cl][Au].c1cc[cH-]c1.c1cc[cH-]c1	ICP-MS, item: gold	NOD.CB17-Prkdc scid/J mice, tumour	dose not given, end of efficacy study	–	tumour concentration	~50 µg/g
N=C(N)NCCC[C@H](NC(=O)CON=C[C@H](F)[C@@H](O)[C@H](O)[C@H](O)CO)C(=O)NCC(=O)N[C@@H](CC(=O)O)C(=O)O [fluorine-18 labelled]	–	nude mice, U-87 MG xenograft, tumour	intravenous, 2 h	–	tumour uptake	0.27 ± 0.06 %ID/g
CCCC[C@H](NC(=O)CNC(=O)CNC(=O)CN1CCN(CC(=O)O)CCN(CC(=O)O)CC1)C(=O)N[C@H]1CC(=O)NCCCC[C@@H](C(N)=O)NC(=O)[C@H](Cc2c[nH]c3ccccc23)NC(=O)[C@H](CCCNC(=N)N)NC(=O)[C@@H](Cc2ccccc2)NC(=O)[C@H](Cc2c[nH]cn2)NC1=O [gallium-67 labelled]	–	C57 mice, female, B16/F1 melanoma, tumour over blood	intravenous, 0.037 MBq, 0.5 h	–	tumour to tissue uptake ratio	9.14
C[C@]12CC[C@@H]3c4ccc(OCC(=O)N[C@@H](CCCCNC(=O)CN5CCN(CC(=O)[O-])CCN(CC(=O)[O-])CCN(CC(=O)[O-])CC5)C(=O)O)cc4CC[C@H]3[C@@H]1CCC2=O.[68Ga+3]	–	female nude mice, MCF7 xenograft	2.5 h post injection	–	tumour uptake	2.69 ± 0.57 % IA/g
CCN(CC)c1ccc2c(-c3ccc(S(=O)(=O)NCCNC(=O)CN4CCN(CC(=O)[O-])CCN(CC(=O)O)CCN(CC(=O)[O-])CC4)cc3S(=O)(=O)[O-])c3ccc(=[N+](CC)CC)cc-3oc2c1.[64Cu+2]	–	athymic nude mice, U-87 MG glioma xenograft	intravenous, 1 h post-injection	–	tumour uptake	6.91 ± 1.26 %ID/g
O=C([O-])CN1CCN(CC(=O)[O-])CCN(CC(=O)NCCc2ccc3c(c2)C2C=CCC2C(c2cc4c(cc2Br)OCO4)N3)CCN(CC(=O)[O-])CC1.[111In+3] (stereo not shown)	–	mice with Hec50 tumour xenograft	1 h	baseline: tumour over muscle	tumour to tissue ratio	3.55
N=C(N)NCCC[C@H](NC(=O)[C@@H]1CSSC[C@H](NC(=O)[C@H](Cc2ccc3ccccc3c2)NC(=O)[C@H](CCCNC(=N)N)NC(=O)[C@H](CCCNC(=N)N)NC(=O)CN2CCN(CC(=O)O)CCN(CC(=O)O)CCN(CC(=O)O)CC2)C(=O)N[C@@H](Cc2ccc(O)cc2)C(=O)N[C@@H](CCCNC(N)=O)C(=O)N[C@@H](CCCCN)C(=O)N[C@H](CCCCN)C(=O)N2CCC[C@H]2C(=O)N[C@@H](Cc2ccc(O)cc2)C(=O)N[C@@H](CCCNC(=N)N)C(=O)N[C@@H](CCCNC(N)=O)C(=O)N1)C(N)=O [copper-64 labelled]	PET	mice	1 to 24 h	baseline: CXCR4-positive over CXCR4-negative tumour	tumour uptake ratio	8 to 10
N=C(N)NCCC[C@@H]1NC(=O)[C@H](CCCCNC(=O)CON=C[C@H](F)[C@@H](O)[C@H](O)[C@H](O)CO)NC(=O)[C@@H](Cc2ccc(O)cc2)NC(=O)[C@H](CC(=O)O)NC(=O)CNC1=O [fluorine-18 labelled]	–	nude mice, U-87 MG xenograft, tumour	intravenous, 1 h	–	tumour uptake	0.95 ± 0.4 %ID/g
CCCC[C@H](NC(=O)CNC(=O)CNC(=O)CN1CCN(CC(=O)O)CCN(CC(=O)O)CCN(CC(=O)O)CC1)C(=O)N[C@H]1CC(=O)NCCCC[C@@H](C(N)=O)NC(=O)[C@H](Cc2c[nH]c3ccccc23)NC(=O)[C@H](CCCNC(=N)N)NC(=O)[C@@H](Cc2ccccc2)NC(=O)[C@H](Cc2c[nH]cn2)NC1=O [gallium-67 labelled]	–	female C57 mice, B16/F1 melanoma	intravenous, 0.037 MBq, 2 h	baseline: tumour over lung	tumour to tissue ratio	63.5

Some of these lines once more:
Compound	assay	test system	setting	scale	measurement	value
CCCC[C@H](NC(=O)CNC(=O)CNC(=O)CN1CCN(CC(=O)O)CCN(CC(=O)O)CCN(CC(=O)O)CC1)C(=O)N[C@H]1CC(=O)NCCCC[C@@H](C(N)=O)NC(=O)[C@H](Cc2c[nH]c3ccccc23)NC(=O)[C@H](CCCNC(=N)N)NC(=O)[C@@H](Cc2ccccc2)NC(=O)[C@H](Cc2c[nH]cn2)NC1=O [gallium-67 labelled]	–	female C57 mice, B16/F1 melanoma	intravenous, 0.037 MBq, 2 h	baseline: tumour over lung	tumour to tissue ratio	63.5
